Experimental data collected from several papers.
A part holds a random share of what one study measured. Positions count from the first letter of the parent shown.

Set 1 — technique: aptamer microarray, sandwich; form: DNA with 2'F-ANA; sample: in vitro; tested at: 200 nM; with: Cy3 exosite-II aptamer, 400 nM; reading: higher = stronger binding; endpoint: mean fluorescence intensity; oligonucleotide: GGTTGGTGTGGTTGG
Target: Prothrombin, mature alpha-thrombin (F2, Homo sapiens, UniProt P00734)
Notes: whole 15-mer aptamer, many near background
2'F-ANA at 3 4 7 8 9 11 15: 640 a.u.
2'F-ANA at 1 2 3 4 7 12 13 14: 77.8 a.u.
2'F-ANA at 1 4 5 6 8 9 12: 132 a.u.
2'F-ANA at 2 3 4 5 6 9 10 11 13: 62.6 a.u.
2'F-ANA at 2 3 5 7 8 11: 114 a.u.
2'F-ANA at 1 6 11 13 14: 52.6 a.u.
2'F-ANA at 1 4 5 11 14: 47.6 a.u.
2'F-ANA at 4 5 13 15: 48.6 a.u.
2'F-ANA at 1 7 8 9 10 12: 75.5 a.u.
2'F-ANA at 1 2 3 4 6 7 8 9 10 12 13 14: 48.5 a.u.
2'F-ANA at 2 4 5 6 12 13 14 15: 65 a.u.
2'F-ANA at 2 3 4 10 11 12 13: 279 a.u.
2'F-ANA at 1 2 3 6 8 9 10 11 15: 61.3 a.u.
2'F-ANA at 1 3 5 6 11 12 13: 81.7 a.u.
2'F-ANA at 1 2 7 11 12 15: 303 a.u.

Set 2 — target: CCNE1, cyclin fold, Cln2 fusion (human); technique: yeast growth competition, sequencing; sample: yeast; notes: strong parent motif; relative to: not given; reading: higher = stronger binding; endpoint: normalised enrichment score
Starting sequence: RBL1 docking peptide (human); GSAKRRLFGEDPP; partner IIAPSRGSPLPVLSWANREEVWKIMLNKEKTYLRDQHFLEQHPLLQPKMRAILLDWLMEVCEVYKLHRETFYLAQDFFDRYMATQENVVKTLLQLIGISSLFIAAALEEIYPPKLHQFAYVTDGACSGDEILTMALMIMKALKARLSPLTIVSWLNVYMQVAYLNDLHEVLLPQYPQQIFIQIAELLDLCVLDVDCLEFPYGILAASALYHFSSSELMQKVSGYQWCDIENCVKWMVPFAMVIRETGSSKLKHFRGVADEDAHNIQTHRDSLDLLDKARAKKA
GSAKRYLFGEDPP [R6Y]: 2.63
GSAKRRLFYEDPP [G9Y]: 6.32
GSAKRRLFGCDPP [E10C]: 4.81
GSAKRRLFGEQPP [D11Q]: 5.3
GSAKRRFFGEDPP [L7F]: 0.0513
GSAKRRLFGEDPV [P13V]: 6.85
GSAKRRLFGEDWP [P12W]: 6.4
ASAKRRLFGEDPP [G1A]: 7.04
GSAKRRIFGEDPP [L7I]: 2.68

Set 3 — technique: protein binding microarray; form: double-stranded DNA, one strand shown; sample: in vitro; tested at: not given; relative to: not given; reading: higher = stronger binding; endpoint: E-score
Target: Histone acetyltransferase KAT6A, winged helix 2, GST fusion (KAT6A, Homo sapiens, UniProt Q92794, residues 85-181)
Notes: 8-mer, flanks averaged, mean of 2 arrays, mostly near background
Construct (chain): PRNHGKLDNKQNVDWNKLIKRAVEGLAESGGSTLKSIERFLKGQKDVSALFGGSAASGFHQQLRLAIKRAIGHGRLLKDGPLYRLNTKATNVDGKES
GGCATCGA: 0.127
CCGACGAA: 0.088
TCGATTCA: 0.00253
CACGCGAC: 0.0101
ACAATAGG: -0.124
CCATTACC: -0.0668
AATTGCGG: 0.0927
AGGGTTAT: -0.199
GGACATTA: -0.0574
AGTCGCAG: 0.0681
GTATAACA: -0.0336
ACAGTCTG: -0.329
CGCACCCG: 0.259

Single results of other studies
PhoQ, residues 284 288 289 292 302 303 SNGLAW
fold induction (PhoP, residues 12 14 15 18 19 HLGGL (Escherichia coli, UniProt P23836); Sort-seq, measured: YFP reporter; E. coli; PhoQ-PhoP variant library, with: 10 µM Mg2+; relative to: high Mg2+ state, higher = stronger signaling): 14

Repeated from above (set 1):
2'F-ANA at 1 2 3 4 6 7 8 9 10 12 13 14: 48.5 a.u.
2'F-ANA at 2 4 5 6 12 13 14 15: 65 a.u.
2'F-ANA at 2 3 4 10 11 12 13: 279 a.u.
2'F-ANA at 1 2 3 6 8 9 10 11 15: 61.3 a.u.
2'F-ANA at 1 3 5 6 11 12 13: 81.7 a.u.
2'F-ANA at 1 2 7 11 12 15: 303 a.u.
